Experimental data from different studies.
Each numbered part is a random draw from the data of one study; scales do not carry over between parts.

Sample 1
Target: Sal-like protein 4, full length isoform B (SALL4, Homo sapiens, UniProt Q9UJQ4-2, residues 1-616)
Method: universal PBM
Form: double-stranded DNA, one strand shown
Medium: in vitro
Concentration: not given
Setting: 8-mer, flanks averaged, mean of replicates
Reading: higher = stronger binding
Sequence | E-score
CATGATGA | 0.141
CATGTCCA | 0.0053
CACTATGC | 0.122
ATCAAAGA | 0.113
AACTGAAT | 0.0626
ATCCCTAA | -0.0553
CTATGGCA | 0.121
CCGACAAG | -0.141

Sample 2
Target: Centromere-binding protein 1, full length, N-terminal tag (CBF1, Saccharomyces cerevisiae, UniProt P17106, residues 1-351)
Chain of UniProt P17106 (whole entry, looked up): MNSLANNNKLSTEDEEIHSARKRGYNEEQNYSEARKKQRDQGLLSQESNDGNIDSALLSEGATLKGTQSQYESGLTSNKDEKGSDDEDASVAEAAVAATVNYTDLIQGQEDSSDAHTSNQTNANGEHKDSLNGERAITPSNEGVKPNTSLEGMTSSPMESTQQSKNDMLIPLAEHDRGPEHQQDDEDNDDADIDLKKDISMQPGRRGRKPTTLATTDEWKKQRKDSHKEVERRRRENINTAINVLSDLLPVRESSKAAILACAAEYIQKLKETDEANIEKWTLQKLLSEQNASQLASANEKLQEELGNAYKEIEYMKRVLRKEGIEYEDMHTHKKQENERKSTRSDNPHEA
Method: protein-binding microarray
Form: double-stranded DNA, one strand shown
Medium: in vitro
Concentration: 0.8 µM
Setting: whole 60-bp probe, no competitor
Reading: higher = stronger binding
Shared flanks, not repeated: … GTCTTGATTCGCTTGACGCTGCTG
Sequence | fluorescence intensity [a.u.]
CTAGCAGAAAGATACATCAGAACAATAGTAACTTTC | 540
CTAGAACAAATTTTCCACATGCTTGTGCCTGCTTTC | 516
TGTACGAAGCTATTGAACACGTCTATAGTAGTTAGG | 538
CTACAGATATAATAGCACGAGAAAAAACTCGTTTTC | 600
GAATACTCAAGTGTATACGTGCATGCTTTTTTTTAG | 616
CTAACTGTTATCCTCCACGTTTTTTCCACTGTTTTC | 604
GAATTTACAGTAGCGCTGATGGCATCTTGTGTGTAG | 470
GAACAACAACTACTTATCGTGACTTGTCTAAAATAG | 617
GAAAACTAACGAGAACACGTTCACTACAGACATTAG | 572
GAAAAGCATTCTGATCCCGTGTGCTATTATGCTTAG | 1170
CCTAACTACTATACTCAACTGATATAGCTTCGTACA | 526

Sample 3
Target: Interferon regulatory factor 5, full length, phosphomimetic (IRF5, Homo sapiens, UniProt Q13568-2, residues 1-514, K96S/S451D/S453D/S456D/S462D)
Method: protein-binding microarray
Form: double-stranded DNA, one strand shown
Medium: in vitro
Concentration: 250 nM
Setting: 60-bp whole probe
Together with: salmon DNA 0.4 mg/ml
Baseline: random background probes
Reading: higher = stronger binding
Shared flanks, not repeated: GCCTAGCAC … GTGCTAGGTCTTGATTCGCTTGACGCTGCTG
Sequence | log fluorescence [z-score]
GACGGACTGCGTATCCTGAC | -0.507
CCTTTTATGGTTTTTTTTTA | 0.687
GAGGGTATCCTTTTCCTGAC | -0.274
TTACATATCAGTCTCGATTA | 2.43
ACTCATTTTCATTTTGTGTC | 2.63
TTAGGTATCGGCTTCGGTTA | 3.84

Mixed results
Molecule | target | test | system | conditions | how to read | endpoint | result
PhoQ, residues 284 288 289 292 302 303 SLANIV | PhoP, residues 12 14 15 18 19 LHHSG (Escherichia coli, UniProt P23836) | Sort-seq, measured: YFP reporter | E. coli | PhoQ-PhoP variant library, together with: 10 µM Mg2+ | baseline: high Mg2+ state, higher = stronger signaling | fold induction | 5.75

Excerpt of the above (sample 2):
Sequence | fluorescence intensity [a.u.]
CTAGAACAAATTTTCCACATGCTTGTGCCTGCTTTC | 516
